Results gathered from unrelated publications.
Lines come from different studies, so protocols differ. Numbers after ± are the reported error.

assay	test system	setting	half-life [h]	SMILES
	Sprague-Dawley rats, male, whole blood	intravenous, 0.5 mg/kg	1.5 ± 0.5	CCc1oc2ccc(O)cc2c1C(=O)c1cc(Br)c(O)c(Br)c1
UPLC-MS/MS	Wistar rat, microcirculation dysfunction model, plasma	oral, 100 mg/kg Salvia miltiorrhiza stem-leaf extract FT	16.9 ± 24.8	C[C@@H]1O[C@@H](OC[C@H]2O[C@@H](Oc3c(-c4ccc(O)c(O)c4)oc4cc(O)cc(O)c4c3=O)[C@H](O)[C@@H](O)[C@@H]2O)[C@H](O)[C@H](O)[C@H]1O
	Sprague-Dawley rats, male, whole blood	intravenous, 0.5 mg/kg	1	CCc1oc2ccccc2c1C(=O)c1cc(Br)c(O)c(Br)c1
	Sprague Dawley rats, male, plasma	oral, 42 mg/kg, aqueous solution, added: co-dosed pure ginsenoside mixture	6.9 ± 2.5	CC(C)=CCC[C@](C)(O[C@@H]1O[C@H](CO)[C@@H](O)[C@H](O)[C@H]1O)[C@H]1CC[C@]2(C)[C@@H]1[C@H](O)C[C@@H]1[C@@]3(C)CC[C@H](O[C@@H]4O[C@H](CO)[C@@H](O)[C@H](O)[C@H]4O[C@@H]4O[C@H](CO)[C@@H](O)[C@H](O)[C@H]4O)C(C)(C)[C@@H]3CC[C@]12C
	male athymic rat, intracranial U87 glioma, tumour extracellular fluid	oral, 50 mg/kg, uncorrected microdialysis, added: before cediranib	2.2	Cn1nnc2c(C(N)=O)ncn2c1=O
	rat, Sprague Dawley, both sexes, plasma	oral, 10 mg/kg, alone	3.8	NC(=O)N1c2ccccc2C=Cc2ccccc21
	male Sprague-Dawley rat (wild type), plasma	oral, 5 mg/kg	2.98 ± 0.62	O=C(O)C[C@H](O)C[C@H](O)/C=C/c1c(C2CC2)nc2ccccc2c1-c1ccc(F)cc1
	male Sprague-Dawley rat, plasma	oral gavage, 10 mg/kg, day 1	1.21	Cc1nc2cccc(OCC(C)(C)C(=O)NC(C)C)c2c(N)c1C(=O)O
	moderate renal impairment patients, plasma	oral, 30 mg of apremilast	23.7	CCOc1cc([C@@H](CS(C)(=O)=O)N2C(=O)c3cccc(NC(C)=O)c3C2=O)ccc1O[C@@H]1O[C@H](C(=O)O)[C@@H](O)[C@H](O)[C@H]1O
	Sprague Dawley rats, male, plasma	oral, 25 mg/kg, aqueous solution, added: co-dosed pure ginsenoside mixture	7.5 ± 4.2	CC(C)=CCC[C@](C)(O[C@@H]1O[C@H](CO)[C@@H](O)[C@H](O)[C@H]1O)[C@H]1CC[C@]2(C)[C@@H]1[C@H](O)C[C@@H]1[C@@]3(C)CC[C@H](O)C(C)(C)[C@@H]3[C@@H](O[C@@H]3O[C@H](CO)[C@@H](O)[C@H](O)[C@H]3O)C[C@]12C
UPLC-MS/MS	Wistar rat, microcirculation dysfunction model, plasma	oral, 100 mg/kg Salvia miltiorrhiza stem-leaf extract FS	7.43 ± 6.32	O=C(O)/C=C/c1ccc(O)c(O)c1
LC-MS/MS	juvenile male Crl:WI(Han) rats, plasma	oral gavage, 0.1 mg/kg/day, postnatal day 17	5.87	CCN1CCN(c2ccc(Nc3cc(N(C)C(=O)Nc4c(Cl)c(OC)cc(OC)c4Cl)ncn3)cc2)CC1
	male Sprague-Dawley rats, plasma	intravenous, 1.7 mg/kg, added: HAL 0.7 mg/kg plus BCT 0.1 mg/kg	0.467 ± 0.143	O=C(CCCN1CCCN(c2ccc(Cl)cc2)CC1)c1ccc(F)cc1

Repeated from above:
assay	test system	setting	half-life [h]	SMILES
	Sprague-Dawley rats, male, whole blood	intravenous, 0.5 mg/kg	1	CCc1oc2ccccc2c1C(=O)c1cc(Br)c(O)c(Br)c1
